# Results collected from several papers.
# Numbered parts are unrelated; each lists some results of a single study.

# Block 1 — technique: RNA Bind-n-Seq; molecule type: RNA; sample: in vitro; tested at: 365 nM; relative to: no-protein control; reading: higher = stronger binding
# Target: RNA binding protein fox-1 homolog 2, RRM domain, GST-SBP tag (RBFOX2, Homo sapiens, UniProt O43251-10, residues 100-194)
# Setting: natural RNA segment, single round, ends assumed
# Construct (chain): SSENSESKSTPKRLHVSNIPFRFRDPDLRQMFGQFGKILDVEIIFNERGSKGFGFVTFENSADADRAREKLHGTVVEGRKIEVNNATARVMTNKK
Oligonucleotide,RBNS enrichment (R)
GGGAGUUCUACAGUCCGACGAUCUGGCCAUGAUGGUCAGACCAAAGGUCAUCCCAGUCCACGGGAGGUCUCCUGUGGAAGGGUCCCGGAACAUAUGCAUGGCGUCUGCUCGCGGCAGGUGGCAGGUGGUGUUGUGGAAUUCUCGGGUGCCAA,0.429
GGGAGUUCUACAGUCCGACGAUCUUACUGACUCCAUUGAGUCCCUGAGCAUCUGUACAUAGCCUUCACCACCCCCAGUCUCAAUCCUGUGCCGACAAAGGAAGUGGACGAAUUAGUGAUGAUGGUGGGCGUGAUGGAAUUCUCGGGUGCCAA,0.241
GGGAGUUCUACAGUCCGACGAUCUUAGAGGGCUACUUCAGUGUCUCUACUGACAGAAACUCCUGUAUCUCAAAUGGAUCUCGAAGUUCUCUAGUAAGGAGUCCUAAGGAUGACAUGUAUUGGGCCACUAGCAGUGGAAUUCUCGGGUGCCAA,0.777
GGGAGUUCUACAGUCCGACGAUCAGAACUUAGGGUGCAGACUGACUUAUUGAUUUCCACCUUGGCAAUGGCAAUAAAGCAUUUUGUAAGGACUGGUUCUCACUGUCUUUAUGGAGAUAGCCCUGGGGGAUAGUUGGAAUUCUCGGGUGCCAA,0.769
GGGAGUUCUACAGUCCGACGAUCACACUCUCCAGUCAUGUCUCCCAAGGGGAUGCAAUUCAGGCUGAGGAAAAGAUGCCAUAUCCCUCUAAAUCUAGUGAUUAGACCUAGGAUCACCCUGUCUCUUUACCACUUGGAAUUCUCGGGUGCCAA,0.379
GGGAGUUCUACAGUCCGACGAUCAAGCGGCACUAAUGAAUUGUUCUUAAUCCGGCACGUCUAAUUUGACACGUUUUCAUGAAGGAAUAACUAAGUUAAAGUGAAAAUGGUUGUGAUUUACAGAAAUAAAAUCCUGGAAUUCUCGGGUGCCAA,0.244
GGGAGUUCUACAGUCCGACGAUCACUGUAUCUUAUUUGAUGAUAUUUAUUUUCUCUGCCAAGCUGUAUAGUAAAAGGAAAAUAAGUCACAUCUGGUCAUUGGCAUUUGUAUCGUCAUUCUGUAAAGACAAAAGUGGAAUUCUCGGGUGCCAA,0.279
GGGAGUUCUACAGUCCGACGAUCCCCCAGGGUCUCCUGUUAACCAGGCUGACUUCGAACUCACAACCUUUAAUUUCUAACCCUACCACAUCACAUCCAGUUUAUGAUUUUUCCAGAGGCUCAAAGCCAGAACCUGGAAUUCUCGGGUGCCAA,0.561
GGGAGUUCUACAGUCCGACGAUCUCAAUUUGCAAGAUAAGUUAUGGGUCACAUGAACAGUCAUGGCAUUUAGCACGUUAUAGGAAAUUAUAAGAGAUUAUAACCAAAUGGAGCGUUAUUAACCCAAAGCAGAAUGGAAUUCUCGGGUGCCAA,0.636
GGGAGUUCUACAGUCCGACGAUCCUUUGUUACUUAAUGUGCUUUCAGUACAGCAGAUAUGCAAUAUUCACCAAAUAAAUGUAGACUGUGUAAUAUUUAUUGAAUCCCUGUGUGCAAAGGGCUCUGAUAAGAGCUGGAAUUCUCGGGUGCCAA,0.271
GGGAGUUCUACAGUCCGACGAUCAAUUUACUUGGCAUUUUAGGACAUGUACAUGAAACAGUGAAAAUGAGAUCCACCAACAUCUUUUAUUAAGUUCAGUUAUUAGUCUGUGAAGUGCUUUACUUUUUGCACAAUGGAAUUCUCGGGUGCCAA,0.513
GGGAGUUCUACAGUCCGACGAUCUGAAAGUUGGUAUUUAACAUUUAUUCAUUUUUAAAAUAUUUGGAAGGUCUGAGCUUGUGAAAAGAAAGUGGUUGGUCUGAGGUUGGAGGAAGCUGAAUGGAAUCUGACGGUGGAAUUCUCGGGUGCCAA,0.622

# Block 2 — technique: RNA Bind-n-Seq; molecule type: RNA; sample: in vitro; tested at: 200 nM; setting: whole 134-nt RNA, ends assumed; together with: 150 mM LiCl; relative to: input library; reading: higher = stronger binding; library: 7-deaza-guanosine replaces G
# Target: Fragile X messenger ribonucleoprotein 1, C-terminal low-complexity region (Fmr1, Mus musculus, UniProt P35922)
Oligonucleotide,log2 enrichment
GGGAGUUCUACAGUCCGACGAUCACCAUGCAGGUGGGCAUCUUUGGGAAGUGGGGCAAGAAAGGGAUAGGGAGGGGGGUAACACUUUGGGAACAGGUGGUCCCAGGUCGUUUCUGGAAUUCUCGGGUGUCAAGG,0.718
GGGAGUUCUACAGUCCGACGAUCAAGUCCUGUGCUACACAUCGUAUGUACCGAAUCGGGGUUUGGGGUUUGGGGUGGGGAAAGUAUUAUGUUACGCCGUUCGGAUCUGCACUUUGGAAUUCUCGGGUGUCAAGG,-0.901
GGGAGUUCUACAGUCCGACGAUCUAACUUUAGAGGAGGAUCUGAUGGAUAUGGCAGUGGACGUGGAUUUGGGGAUGGCAAUAAUGGGUAUGGAGGAGGACCUGGAGGUGGCAAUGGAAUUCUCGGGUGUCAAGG,1.06
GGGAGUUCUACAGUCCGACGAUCUCAAGUCCUGUGCUACACAUCGUAUGUACCGAAUCGGGUUUGGGAAAGGGUGGGAAAGUAUUAUGUUACGCCGUUCGGAUCUGCACUUCCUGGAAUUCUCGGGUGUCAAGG,-1.92
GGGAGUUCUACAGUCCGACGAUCUGGUUCUGGCAUUUAUGACCCUUGUGAAAAAGAAGCCACUGAUGCUAUUGGGCAUCUAGACAGACAGCAACGGGAAGAUAUCACACAGAGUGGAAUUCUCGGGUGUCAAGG,-1.12
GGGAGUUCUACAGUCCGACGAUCAGUCCUGUGCUACACAUCGUAUGUACCGAAUCAAACCCCCAAAUUUUUAAACCCAAAAAAGUAUUAUGUUACGCCGUUCGGAUCUGCACUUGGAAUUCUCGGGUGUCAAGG,0.792
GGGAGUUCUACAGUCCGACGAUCCACAGACAACACGCACCCACACAGACACAGAGGGAAGGGGUUGGGAAAAGGACAGGGUGCACAGCAGGGCGGGGUAGGACCCCAGCCCCUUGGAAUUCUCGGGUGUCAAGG,0.271

# Block 3 — technique: RNA Bind-n-Seq; molecule type: RNA; sample: in vitro; tested at: not given; relative to: input RNA pool; reading: higher = stronger binding
# Target: RING finger protein unkempt homolog, zinc fingers 1-6, GST-SBP tag (UNK, Homo sapiens, UniProt Q9C0B0, residues 30-357)
# UniProt Q9C0B0, sequence (30-357, looked up): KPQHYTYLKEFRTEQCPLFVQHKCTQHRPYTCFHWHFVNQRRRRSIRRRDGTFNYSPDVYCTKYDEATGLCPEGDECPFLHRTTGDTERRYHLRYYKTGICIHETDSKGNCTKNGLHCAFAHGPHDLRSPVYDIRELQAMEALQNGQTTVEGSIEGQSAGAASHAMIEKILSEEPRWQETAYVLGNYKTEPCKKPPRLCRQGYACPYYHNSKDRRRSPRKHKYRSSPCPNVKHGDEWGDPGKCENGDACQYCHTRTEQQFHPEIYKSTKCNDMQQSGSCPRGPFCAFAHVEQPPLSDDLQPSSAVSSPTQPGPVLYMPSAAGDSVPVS
# Setting: RNA with constant flanks, human and mouse sites, ends assumed
Oligonucleotide,bound/input enrichment
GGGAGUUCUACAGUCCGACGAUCGCUCUGGGCUUUUCUGAUGUGGAUCACACCUAUGCUCAAAGAACUCAGCUCUUUGACACCUUAGUAAAUUUCUUUCCUGACAGCAUGACUCCUCCUAAAGGCAACCUGGUAGACCUCAUCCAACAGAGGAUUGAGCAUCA,3.2 ratio
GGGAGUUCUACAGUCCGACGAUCGAGGUAGAUCAAGACCUCAUUCCACUGUUAGUGAAAGAAACGGAAGCAAGAUUUCCAGAUGUAGCAAGUGGAUAUGUUGAAGAAAUAAUUCAUUUGAAAAAUUACUAUGAUUUGAAUGUACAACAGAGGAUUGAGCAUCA,0.311 ratio
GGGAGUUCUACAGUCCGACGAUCUAUUACAUCACUGAACUAAAAUAUGGAGACAUCCUCAUUGAAAAUGGAGGGCACUCUAUCAGUCUAUAACUAUCAACGUAGUGCAACAGGGUGUUUUGAUACCUUUGUUUUCACCUCUUGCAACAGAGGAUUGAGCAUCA,0.203 ratio
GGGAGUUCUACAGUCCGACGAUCGUAUCAGUGUGCAAAGAGCUUCCCUAUGUUAAUACGUUACGGCAAACCAUAUGGAGUAAGAGGAGUCAUGUUUUCUCCCCUAGCUCUGCCAGUAACUAGCCUUGUCACCUUGGUCAAAACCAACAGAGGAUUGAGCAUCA,0.195 ratio
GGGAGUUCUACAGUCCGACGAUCCAUUCCUGUCCCUUCCUGGCUUGAGCUCUUGGCUGUAUUCUGUGUGCCUCUACCAUGUCUGCUGUUUGGGUCUCUGCGCUGUGUGUUCUCAGGUGCAGCCAUGACUCCCCACUCUGUGCACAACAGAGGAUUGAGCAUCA,0.388 ratio
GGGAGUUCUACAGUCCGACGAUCCCGGCCGCACAACUACCUCAGCGCAGCGGUUGCUGCAGCGGCCCCAGGGCUUUAAACUGCCAUAGGGCGCCCCCUUGAGGUUGCUUCACCCGCUGACCAUGUUCCAGCGCUUCACCAGCCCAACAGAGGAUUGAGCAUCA,0.15 ratio
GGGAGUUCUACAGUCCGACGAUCAUAAGAGGUAUUGCCCUUAGAGCACUCCUCACUCCCCCAAUCUCCAAAUCCUACCUCUUCAGGCAGAGUGAAUGAGUGGCUUAUAGCAGUGGCCCUCAGUAACCAGAAGUUCUGUCUUGACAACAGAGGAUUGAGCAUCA,0.228 ratio
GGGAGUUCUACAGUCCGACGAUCUUUGAUACAGUCAAAAGUGUUCUCGACAAAGACCGAAAAGAAGAUGAUACAAAUGAAUUUGUUAGUGCUGUGUGCUGGAGGGCACUACCAGAUGGGGAGUCCAAUGUGCUGAUUGCUGCUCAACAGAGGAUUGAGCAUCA,0.58 ratio
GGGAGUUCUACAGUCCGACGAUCCAUAGUACUACUGGAAUGCUCAAUCAGUUAUUUUUGGUGUGGCAUACUUCAGAGCUGGCCUGUCCGUCUGAAGAACCCUUUCUCUCACAAUUACAGUUUGCAUGACUAGAACCCGGAACUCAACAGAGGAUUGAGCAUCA,0.449 ratio

# Block 4 — technique: protein-binding microarray; molecule type: double-stranded DNA, one strand shown; sample: in vitro; tested at: not given; reading: higher = stronger binding
# Target: Protein C-ets-1 (ETS1, Homo sapiens, UniProt P14921, residues 1-441, Y397A, full length assumed)
# UniProt P14921, sequence (whole entry, unmodified, looked up): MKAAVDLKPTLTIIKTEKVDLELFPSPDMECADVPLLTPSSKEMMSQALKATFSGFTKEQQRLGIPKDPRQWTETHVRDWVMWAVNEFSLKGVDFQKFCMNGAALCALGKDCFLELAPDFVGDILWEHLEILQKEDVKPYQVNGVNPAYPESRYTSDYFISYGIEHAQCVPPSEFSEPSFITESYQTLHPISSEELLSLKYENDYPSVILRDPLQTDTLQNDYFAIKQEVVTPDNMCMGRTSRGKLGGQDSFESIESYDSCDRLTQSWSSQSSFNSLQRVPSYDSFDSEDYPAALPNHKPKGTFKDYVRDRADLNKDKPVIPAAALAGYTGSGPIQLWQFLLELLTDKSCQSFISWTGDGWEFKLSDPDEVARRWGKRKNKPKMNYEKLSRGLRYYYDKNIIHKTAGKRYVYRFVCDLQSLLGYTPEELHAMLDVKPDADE
# Setting: k-mer, scored over probes, only values ≥0.25
Oligonucleotide,E-score
AACATGTA,0.259
AATTGTCA,0.407
TCGACGAA,0.315
CCGTCAAA,0.311
CCCCACCC,0.299
GACAATGC,0.256
GTGTCACA,0.328
AATTTGTC,0.353
TGCACGAA,0.253
ATATATAC,0.263
CAATGTCA,0.27
ACATGTAT,0.277
GGAAGTAA,0.37
ACATGACA,0.357
CAGTGTCA,0.278
CACTTCCG,0.479
GATATACC,0.272
CAGCCGGA,0.251

# Repeated from above (block 4):
Oligonucleotide,E-score
CCCCACCC,0.299
ACATGTAT,0.277
GACAATGC,0.256
CCGTCAAA,0.311
AATTGTCA,0.407
GGAAGTAA,0.37
AACATGTA,0.259
